Measurements from different studies.
A part holds a random share of what one study measured.

Block 1
Target: Max dimerization protein 1, bHLH-zipper, MAX partner unstated (MXD1, Homo sapiens, UniProt Q05195, residues 56-136)
Method: protein-binding microarray
Molecule type: double-stranded DNA, one strand shown
Medium: in vitro
Concentration: not given
Notes: k-mer, scored over probes, only values ≥0.25
Direction: higher = stronger binding
Target sequence (chain): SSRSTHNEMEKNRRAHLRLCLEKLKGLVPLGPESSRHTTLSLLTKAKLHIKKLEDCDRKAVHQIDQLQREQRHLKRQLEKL
| Sequence | E-score |
| --- | --- |
| CATGCGGC | 0.412 |
| ACCAGGCG | 0.254 |
| CAACATGC | 0.323 |
| AAGACATG | 0.309 |
| CATGGGTA | 0.34 |
| GCATGCAC | 0.389 |
| CCCATGAG | 0.257 |
| ACACGATG | 0.327 |
| CACATGCC | 0.451 |
| GCACACGA | 0.259 |
| AGCAGGTG | 0.3 |
| CGCGTGGA | 0.404 |
| CACATTGA | 0.28 |
| CGTCCCAC | 0.325 |
| GCGTGCAA | 0.297 |
| CGTGTTAC | 0.295 |
| CACACCTC | 0.258 |
| ACGCGTGG | 0.432 |
| CGTGGTTC | 0.37 |
| AATGTGCA | 0.262 |
| CATGACCC | 0.338 |
| GCATGGCC | 0.401 |
| CAGGTGGG | 0.328 |
| TCGTGTAA | 0.284 |
| ATAACGCG | 0.254 |

Block 2
Target: Interferon regulatory factor 5, full length, phosphomimetic (IRF5, Homo sapiens, UniProt Q13568-2, residues 1-514, K96S/S451D/S453D/S456D/S462D)
Method: protein-binding microarray
Molecule type: double-stranded DNA, one strand shown
Medium: in vitro
Concentration: 250 nM
Notes: 60-bp whole probe
Together with: salmon DNA 0.4 mg/ml
Relative to: random background probes
Direction: higher = stronger binding
Constant ends, left off below: GCCTAGCAC … GTCTTGATTCGCTTGACGCTGCTG
| Sequence | log fluorescence |
| --- | --- |
| TTTTCTTTTCATTACTGCATGTGCTAG | 3.29 z-score |
| TCATGTTTGGGCATTTTTACTGTGCTA | 0.236 z-score |
| GATGAACTGAGACTGGAGACGTGCTAG | -0.211 z-score |
| TTAGAACTGGGGTTTGGATTAGTGCTA | -0.0448 z-score |
| TGAGGTTCCGGTTTCGGTTAGTGCTAG | 9.25 z-score |
| GACGATTTCGGGACTAGAGACGTGCTA | 1.93 z-score |
| GACGCACTGGGGACTGGGGACGTGCTA | -0.583 z-score |
| TTAGGTATCGAGTATCGGTTAGTGCTA | 7.76 z-score |
| TGAAATTTTAATAACACAGAGTGCTAG | 0.888 z-score |
| TTAGGTTTCGGGTCTCGGTTAGTGCTA | 8.1 z-score |
| GACTGTATCCTTTTCCTGACGTGCTAG | 0.6 z-score |
| GAGTGTTTCTTCTGCTGACAGTGCTAG | 0.962 z-score |
| ATAGGTCTCGGTTTCGGTTAGTGCTAG | 8.84 z-score |
| GTGGCTCACACCTGTCATCCCGTGCTA | -0.537 z-score |
| GTAGGTATCCTTATCCTTTAGTGCTAG | 0.102 z-score |
| TCATGACTCTGCCTCTAACTGTGCTAG | -0.315 z-score |
| TCAAAAATCCCATTAAAACTGTGCTAG | 0.331 z-score |
| TTAGAACTGGGGACTGGATTCGTGCTA | -0.328 z-score |
| TTAGGTATCGAATTTCGGTTAGTGCTA | 7.64 z-score |
| TCAGATTTCCATTATTGACTGTGCTAG | 0.745 z-score |
| GACGGTTCCCTTTTCTTGACGTGCTAG | 0.361 z-score |
| GACGGACTGGGGTTTCGTGACGTGCTA | -0.0961 z-score |
| TCATTTTCATTTTCCAAACTGTGCTAG | 4.06 z-score |

Block 3
Target: RNA binding protein fox-1 homolog 2, RRM domain, GST-SBP tag (RBFOX2, Homo sapiens, UniProt O43251-10, residues 100-194)
Method: RNA Bind-n-Seq
Molecule type: RNA
Medium: in vitro
Concentration: 365 nM
Notes: natural RNA segment, single round, ends assumed
Relative to: no-protein control
Direction: higher = stronger binding
Constant ends, left off below: GGGAGUUCUACAGUCCGACGAUC … UGGAAUUCUCGGGUGCCAA
Construct (chain): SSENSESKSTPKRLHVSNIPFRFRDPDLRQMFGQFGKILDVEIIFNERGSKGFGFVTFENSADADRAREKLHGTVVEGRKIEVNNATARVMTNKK
| Sequence | RBNS enrichment (R) |
| --- | --- |
| CCCUUCAUUUUGGGACUGAGGCUGCAGCAUUGGAACAAAAGAGCAUUAUUUCAAUUUUUCUUUCUUUUUUUUUGUUCGUUCAUUUAAACGUAUAUUUAGAACUGCACUUU | 1.13 |
| CUAUAGAGCGUCAUUUAUACGUAGUUUGGCAGAAACCACUUACGGCUGAUGAUGCGCAACCCUGCUGACUGUUUCAGUUAAUAUGCUGCACACCACACACUUGUUUAGUG | 0.307 |
| GGAAGCCUGCUGGCCUCGGGUAUGGGCUUCUCUGCCAGUCUCUGGACUGGCCCUUCAAGGAGGUGGAAGUGGUUUUCUCUGUGUUUGAGUCAUUGAGUAUUGAAGCCAUG | 0.326 |
| AACAAAAAAAAAUGAAAAAAAAAAAGAAAAAUGAAAAAAGUGUGUUGUUAUAGUAACAUAAAUAAUACACAGAAUUUUGUUACACUAUCAGUUUGGGGGGUGAGCUUUGA | 1.23 |
| GAAUGGGACUGGGCUGACGCCCUGCAUUCAGCCUGUGCCUUUCCUGGGGUUUCUUUUCUGUUCUUUUCGGAGGAGAGGGCCCGAGAAGGGGCCAUACCAGGGCGCGGCGC | 0.584 |
| GUGAAUGUUCAUGUAUGACCUACUUGUAAUUAACUUGAGUUGUAGUCCACAGCCUCAGGACAAAUGUCGUUGAGGUUACAGAGUAAGAAAUGAUGGCAAAACGUCAAACU | 0.415 |
| AUUGUUCUUAGAUGAUGGAGUCCAUGCAGUUUCUUAGAAAUCGGUCUCAGUGCAUGCUGUGCUUUUUCACAUUUGCUCUGGGUUAUCUGGGAAGUAUCAGGUUCUGGGAG | 0.476 |
| CCCCAGGUCUACCCAGCCCCUGGCUGUCCUUGGUCCUGUCUCCCCUCCUGCUGUAUUCAGGGGUGCCCCCUGGUGCUCAGCCUCUACCACCCCCAACCCUGCUCUUGGGU | 0.262 |
| AAAAAAAAAAAUCCCUAUUUAAGAUUCUGAAGGUGCUACCAUUAUUUUGCCACAGACUUUGAAGAAACUUUUGGAUGUGGGGCAUCAUCCGCAUCUUUCUCUCUCCUCCA | 0.672 |
| AGGGGCAGGGGCCCACCGCACACCCUUGUCCCGGGCCUGUCUGGGACUGGCCUUCCCGGCUCAGCCAGUGAGGCUCAGAAGGGACACAAAGAGGGAUGGAAGAAAAGAAC | 0.394 |
| CGGCACAUGGAUGCCCACGCAUGUGCAAAAACAACUCAGGGACCAGGGACAGACCUGCUGCCAAGUGAGCCUGAUGGGCCACAGGUGUGCUCUUCUAAAUGGCCUGUGAG | 4.76 |
| GUUAAAUAGCCCUUGAUGACUUUUCAUGUGGCAUGAGAGGGAUAUGCUUAUAAAGCUUAAUUCUGAUAUUAUCCUCUUACUACCUACAGUAUGUUUUGCAAAAAUCAGUC | 0.423 |

Block 4
Target: Histone acetyltransferase KAT6A, winged helix 1, GST fusion (KAT6A, Homo sapiens, UniProt Q92794, residues 1-85)
Method: protein binding microarray
Molecule type: double-stranded DNA, one strand shown
Medium: in vitro
Concentration: not given
Notes: 8-mer, flanks averaged, mean of 2 arrays, mostly near background
Relative to: not given
Direction: higher = stronger binding
Residues (chain): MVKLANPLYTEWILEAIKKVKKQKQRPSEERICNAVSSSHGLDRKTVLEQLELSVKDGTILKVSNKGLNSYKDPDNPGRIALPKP
| Sequence | E-score |
| --- | --- |
| AATAGCAC | -0.105 |
| ACACTCAC | -0.104 |
| CAGTAAGG | 0.0506 |
| AGATGCGG | 0.0323 |
| AAACTACT | -0.0678 |
| ATCACAGA | -0.247 |
| TTGCAAAA | -0.273 |
| CGATCCAG | -0.0525 |
| ACGTGAGT | -0.201 |
| ATGTACGA | -0.166 |
| GTAGGTCA | -0.132 |
| ATTGTTAA | -0.145 |
| GTGGACCA | -0.136 |
| CCCTTTAG | -0.179 |
| ACAGGCAT | -0.057 |
| GGGAACAC | -0.0831 |
| AATGGCTA | -0.199 |
| AGACTAAT | -0.0807 |
| ACTCCCGC | 0.342 |
| TCACCGAA | -0.193 |
| ACGAGCCC | 0.049 |
| ATGATAAA | -0.00115 |
| CTACTAAC | -0.0565 |
| CTCCCCGC | 0.294 |
| CGGATCAC | 0.0429 |

Block 5
Target: Sal-like protein 4, full length isoform B (SALL4, Homo sapiens, UniProt Q9UJQ4-2, residues 1-616)
Method: universal PBM
Molecule type: double-stranded DNA, one strand shown
Medium: in vitro
Concentration: not given
Notes: 8-mer, flanks averaged, mean of replicates
Direction: higher = stronger binding
| Sequence | E-score |
| --- | --- |
| CTTACGCA | 0.0768 |
| GACTCGCA | -0.0633 |
| TAACGAAA | 0.321 |
| CCACGTCA | -0.00772 |
| ATTTGTTG | 0.22 |
| ATTAAAAA | 0.385 |
| ACGAAAGT | 0.0761 |
| CTCTCCTC | -0.225 |
| CATGCAGG | -0.231 |
| ACTAAGGC | -0.117 |
| AGTAATTG | 0.1 |
| AATGGTGC | -0.0473 |
| AAGCTCGC | -0.246 |
| TACGAACA | 0.217 |
| CGTCCGAC | -0.287 |
| ATAGTCAT | 0.219 |
| AGGGAGAC | -0.189 |
| ACGCGACC | -0.205 |
| ACGAGGCC | -0.277 |
| CAGCACCC | -0.333 |
| GATGGTAA | 0.137 |
| ATCTTTTG | 0.131 |
| ATTCTTAG | 0.0428 |
| ATACAAAT | 0.332 |

Block 6
Target: Centromere-binding protein 1, full length, N-terminal tag (CBF1, Saccharomyces cerevisiae, UniProt P17106, residues 1-351)
Chain of UniProt P17106 (whole entry, looked up): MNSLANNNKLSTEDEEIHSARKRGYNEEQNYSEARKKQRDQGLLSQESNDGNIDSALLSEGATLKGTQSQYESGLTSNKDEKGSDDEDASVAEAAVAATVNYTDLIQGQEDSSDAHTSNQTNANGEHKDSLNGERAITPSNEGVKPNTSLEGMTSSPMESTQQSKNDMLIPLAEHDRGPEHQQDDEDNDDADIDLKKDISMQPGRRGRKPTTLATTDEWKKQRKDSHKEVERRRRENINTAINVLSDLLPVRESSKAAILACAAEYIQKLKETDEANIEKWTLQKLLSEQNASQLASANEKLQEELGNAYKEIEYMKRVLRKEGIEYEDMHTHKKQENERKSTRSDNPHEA
Method: protein-binding microarray
Molecule type: double-stranded DNA, one strand shown
Medium: in vitro
Concentration: 0.8 µM
Notes: whole 60-bp probe, no competitor
Direction: higher = stronger binding
Constant ends, left off below: … GTCTTGATTCGCTTGACGCTGCTG
| Sequence | fluorescence intensity [a.u.] |
| --- | --- |
| CTAGTCAAAATCGGTCACGTGGTAAAGGGTCTGTTC | 17700 |
| CCTAACTACTATAGTGATATTGCATAGCTTCGTACA | 504 |
| CTAACCTACACTTGCCTCGTGGCGGGAAACTGCTTC | 575 |
| GAAGGGTATGCGTTTCATGTGCGTGGGGAAAGTTAG | 559 |
| GAACATAGAAAAAAGCATGTGATCAAGGCAGAGTAG | 4080 |
| CTAGAAACTTGATAACGCACGCTAAACGATAACTTC | 513 |
| GAAATTTCTTCCCCTCTCGTGATTTCTAGATAATAG | 958 |
| TGTACGAAGCTATAATGTCAGTTTATAGTAGTTAGG | 558 |
| GAATAGGCGATTGATCACGGACATAGCCATATTTAG | 611 |
| TGTACGAAGCTATATCAGGTGGATATAGTAGTTAGG | 724 |
| CTAATAATCTAATTCCTCATGATTAAATGAGACTTC | 525 |
| GAAAGGTTAAGTGGAAACGTGATAAACTGCGGCTAG | 1040 |
| CTAACGGAAGTACATCTGCTGATACATTTGAAATTC | 578 |
| CTAGAGTTCTTTCACGTGCTGTGTTCGGCCCGCTTC | 4000 |
| CTAACAAAAGCAGATCTCCTGTTCATATACCATTTC | 514 |

Excerpt of the above (block 4):
| Sequence | E-score |
| --- | --- |
| ATCACAGA | -0.247 |
| TTGCAAAA | -0.273 |
| CGATCCAG | -0.0525 |
| ACGTGAGT | -0.201 |
| ATGTACGA | -0.166 |
| GTAGGTCA | -0.132 |
| ATTGTTAA | -0.145 |
| GTGGACCA | -0.136 |
| CCCTTTAG | -0.179 |
| ACAGGCAT | -0.057 |
| GGGAACAC | -0.0831 |
| AATGGCTA | -0.199 |
| AGACTAAT | -0.0807 |
| ACTCCCGC | 0.342 |
| TCACCGAA | -0.193 |
| ACGAGCCC | 0.049 |
